# Published values collected from several papers.
# Compare with care: the assays were run in different laboratories. Numbers after ± are the reported error.
# Organism: Mycobacterium tuberculosis
Compound,test,test system,conditions,how to read,quantity,value
Cc1nc(OCCc2cc(F)cc(F)c2)c(C(N)=O)s1,growth,H37Rv-LP,120 h,,IC90,37 ± 11 µM
Cc1ccc(NCC(=O)N[C@H]2CC[C@H](C)CC2)cc1,,H37Rv mc2 6206,"concentration not given, 168 h",,activity,inactive
COc1ccc(-c2ccc3c(N)c(C(=O)N4CCOCC4)sc3n2)cc1,growth inhibition,H37Rv LepB under-expressing,,,IC50,> 100 µM
CC[C@@H](CO)NCCN[C@@H](CC)CO,time-kill,H37Rv,"concentration not given, 7 days",,kill rate,0.46 h⁻¹
COc1ccc(-c2cc(C(F)(F)F)c3c(N)c(C(=O)NC45CC6CC(CC(C6)C4)C5)sc3n2)cc1,growth inhibition,H37Rv LepB under-expressing,,,IC50,0.33 ± 0.09 µM
CO[C@H]1[C@H](O[C@H]([C@H]2O[C@@H](n3ccc(=O)[nH]c3=O)[C@H](O)[C@@H]2O)[C@H](NCCCNC(=O)[C@@H](NC(=O)[C@@H](NC(=O)N[C@H](C(=O)O)C(C)C)[C@@H]2CCN=C(N)N2)[C@@H](OC(=O)CCCCCCCCCCCCN(O)C(=N)N)C(C)C)C(=O)O)O[C@H](CN)[C@H]1O,microplate alamar blue,H37Rv,,,MIC90,0.08 ± 0.004 µg/mL
COc1cccc(-c2cc(C(F)(F)F)c3c(N)c(C(=O)Nc4cccc(C)c4C)sc3n2)c1,growth inhibition,H37Rv LepB under-expressing,,,IC50,1.5 ± 1 µM
O=c1c2cc(Cl)c(CO)cc2[nH]c(=S)n1Cc1cncc(-c2nnn[nH]2)c1,,PptT conditional knockdown,,,MIC90,11.9 µM
CN1CCN(c2ccc(Nc3nccc(-c4ccc5ccccc5c4)n3)cc2C(F)(F)F)CC1,,H37Rv auxotroph,,,MIC,12.5 µM
O=c1c2cc(Cl)ccc2[nH]c(=S)n1Cc1cccnc1,,PptT conditional knockdown,,,MIC90,0.3 µM
Nc1cccc(F)c1C(=O)NNc1ccc(F)cc1,,H37Rv,336 h,,MIC99,1.56 to 2.84 µM
CCN(CC)C(=O)c1sc2ncccc2c1N,growth inhibition,H37Rv LepB under-expressing,,,IC50,> 100 µM
Nc1cccc(F)c1C(=O)NNc1ccc(C(F)(F)F)cc1,,H37Rv,336 h,,MIC99,1.56 to 2.84 µM
NNC(=O)c1ccncc1,,H37Rv,10 µg/mL,,activity,inactive
COc1ccc(-c2cc(C(F)(F)F)c3c(N)c(C(=O)N4C5CCCC4COC5)sc3n2)cc1,,H37Rv wild type,120 h,,IC90,inactive
O=c1c2cc(Cl)ccc2[nH]c(=S)n1Cc1ccc(-c2cscn2)nc1,,PptT conditional knockdown,,,MIC90,1.47 µM
CCCCCCC#Cc1cncc(-c2nnc(SCc3cc([N+](=O)[O-])cc([N+](=O)[O-])c3)n2C2CC2)c1,bacterial growth,Erdman wild type,,,IC50,1.2 µM
Nc1cccc(F)c1C(=O)NNc1ccc(Cl)cc1,,H37Rv,336 h,,MIC99,1.56 to 2.84 µM
Cc1ccc(OCCc2ccc(C3CC3)cc2)c(C(N)=O)c1,growth,H37Rv-LP,120 h,,IC90,0.41 ± 0.31 µM
CC(C)C(=O)OCc1cc2[nH]c(=S)n(Cc3cncnc3)c(=O)c2cc1Cl,,PptT conditional knockdown,,,MIC90,0.353 µM
Cc1nc2ccc(CN(C)c3ccc(C(=O)N[C@@H](CCC(=O)O)C(=O)O)s3)cc2c(=O)[nH]1,"bacterial growth, inhibitor",H37Rv pptT conditional knockdown,"PptT depleted, ATc withheld",,MIC90,> 100 µM
Cc1ccc(NCCc2cccc(F)c2)c(C(N)=O)c1,growth,H37Rv-LP,120 h,,IC90,59 ± 5 µM
COc1cccc(-c2ccnc(Nc3ccc(N4CCN(C)CC4)c(C(F)(F)F)c3)n2)c1,,H37Rv auxotroph,,,MIC,25 µM
COCc1ccc2[nH]c(=S)n(Cc3cccnc3)c(=O)c2c1,,PptT conditional knockdown,,,MIC90,7.27 µM
Cc1ccc(OCCc2ccc(Br)cc2)c(C(N)=O)c1,growth,H37Rv-LP,120 h,,IC90,0.55 ± 0.22 µM
CN1CCN(c2ccc(Nc3nccc(-c4cccnc4)n3)cc2C(F)(F)F)CC1,,H37Ra ATCC 25177,median,,MIC,51 µg/mL
NC(=O)c1cc(Br)ccc1OCCc1cccc(F)c1,,H37Rv-LP,,relative to: HepG2 CC50 over Mtb IC90,selectivity index,> 18
COc1ccc(-c2cc(C(F)(F)F)c3c(N)c(C(=O)N4CCCC4(C)C)sc3n2)cc1,growth inhibition,H37Rv LepB under-expressing,,,IC50,> 100 µM
CN1CCN(c2ccc(Nc3nccc(-c4ccc(Cl)cc4)n3)cc2C(F)(F)F)CC1,,H37Rv auxotrophic strain,,,MIC,11.2 µg/mL
Cc1ccc(NC(=O)c2ccccc2)cc1Nc1nccn1-c1cc(NC2CCCC2)ncn1,,W4,120 h,,MIC50,0.07 µM
CC(c1cccnc1)n1c(=S)[nH]c2ccc(Cl)cc2c1=O (stereo not shown),,PptT conditional knockdown,,,MIC90,7.92 µM
COc1ccc(-c2cc(C(F)(F)F)c3c(N)c(C(=O)N4CC(OC)C4)sc3n2)cc1,,H37Rv wild type,,relative to: HepG2 IC50 over M. tuberculosis IC90,selectivity index,< 1
CCCCCCC#Cc1cncc(-c2nnc(SCc3cc([N+](=O)[O-])cc([N+](=O)[O-])c3)n2C)c1,resazurin reduction,H37Rv mc2-6206 wild type,,,MIC80,2.2 µM
CN1CCN(c2ccc(Nc3nccc(-c4ccnc(NCc5ccccc5)c4)n3)cc2C(F)(F)F)CC1,,H37Rv auxotrophic strain,,,MIC,> 60.8 µg/mL
Cc1ccc(OCCc2cccc(F)c2)c(C(N)=O)c1,,H37Rv-LP,,relative to: HepG2 CC50 over Mtb IC90,selectivity index,53
CCCCCCC#Cc1cncc(-c2nnc(SCc3ccc([N+](=O)[O-])o3)n2C)c1,"bacterial growth, MABA",Erdman wild type,,,IC50,0.1 ± 0.0115 µM
O=c1c2nc(Cl)ccc2[nH]c(=S)n1Cc1cccnc1,,PptT conditional knockdown,,,MIC90,3.9 µM
COc1ccc(CCOc2ccc(-c3ccsc3)cc2C(N)=O)cc1F,,H37Rv-LP,,relative to: HepG2 CC50 over Mtb IC90,selectivity index,75
Cc1c(-c2ccc(N3CCCCC3)cc2)[nH]c2ccccc2c1=O,"bacterial growth, microplate alamarBlue",H37Rv,aerobic,,IC90,3.11 ± 0.56 µM
CNC(=O)c1cc(-c2ccoc2)ccc1OCCc1cccc(F)c1,,H37Rv-LP,,relative to: HepG2 CC50 over Mtb IC90,selectivity index,28
CCCCCCC#Cc1cncc(-c2nnc(SCc3ccc(Cl)cc3)n2C2CC2)c1,bacterial growth,Erdman wild type,,,IC50,3.3 µM
CO[C@H]1/C=C/O[C@@]2(C)Oc3c(C)c(O)c4c(O)c(c(/C=N/N5CCN(C)CC5)c(O)c4c3C2=O)NC(=O)/C(C)=C\C=C\[C@H](C)[C@H](O)[C@@H](C)[C@@H](O)[C@@H](C)[C@H](OC(C)=O)[C@@H]1C,,W4,120 h,,MIC50,< 0.005 µM
O=C(CNc1ccc(Cl)cc1)NC1C2CC3CC(C2)CC1C3 (stereo not shown),,H37Rv mc2 6206,"concentration not given, 168 h",,activity,inactive
CN(C)C(=O)c1sc2nc(-c3ccccc3)ccc2c1N,growth inhibition,H37Rv LepB under-expressing,,,IC50,13 ± 9 µM
COC(=O)C(=O)[C@H](C[C@@H]1CCNC1=O)NC(=O)[C@H](CCCCN)NC(=O)[C@H](Cc1ccccc1)NC(=O)OCc1ccccc1,bacterial growth,"THP-1 macrophages, Mtb-lux",24 h,,IC50,19.3 ± 7.2 µM
N#CN=c1[nH]c2ccc(Cl)cc2c(=O)n1Cc1cccnc1,,PptT conditional knockdown,,,MIC90,24 µM

# Repeated from above:
Compound,test,test system,conditions,how to read,quantity,value
CN1CCN(c2ccc(Nc3nccc(-c4cccnc4)n3)cc2C(F)(F)F)CC1,,H37Ra ATCC 25177,median,,MIC,51 µg/mL
COc1ccc(-c2cc(C(F)(F)F)c3c(N)c(C(=O)NC45CC6CC(CC(C6)C4)C5)sc3n2)cc1,growth inhibition,H37Rv LepB under-expressing,,,IC50,0.33 ± 0.09 µM
CNC(=O)c1cc(-c2ccoc2)ccc1OCCc1cccc(F)c1,,H37Rv-LP,,relative to: HepG2 CC50 over Mtb IC90,selectivity index,28
